Published values pooled from the literature.
Numbered parts are unrelated; each lists some results of a single study. Positions count from the first letter of the parent shown.

Block 1 — technique: universal PBM; molecule type: double-stranded DNA, one strand shown; medium: in vitro; concentration: not given; direction: higher = stronger binding
Target: Sal-like protein 4, full length isoform B (SALL4, Homo sapiens, UniProt Q9UJQ4-2, residues 1-616)
Notes: 8-mer, flanks averaged, mean of replicates
Construct (chain): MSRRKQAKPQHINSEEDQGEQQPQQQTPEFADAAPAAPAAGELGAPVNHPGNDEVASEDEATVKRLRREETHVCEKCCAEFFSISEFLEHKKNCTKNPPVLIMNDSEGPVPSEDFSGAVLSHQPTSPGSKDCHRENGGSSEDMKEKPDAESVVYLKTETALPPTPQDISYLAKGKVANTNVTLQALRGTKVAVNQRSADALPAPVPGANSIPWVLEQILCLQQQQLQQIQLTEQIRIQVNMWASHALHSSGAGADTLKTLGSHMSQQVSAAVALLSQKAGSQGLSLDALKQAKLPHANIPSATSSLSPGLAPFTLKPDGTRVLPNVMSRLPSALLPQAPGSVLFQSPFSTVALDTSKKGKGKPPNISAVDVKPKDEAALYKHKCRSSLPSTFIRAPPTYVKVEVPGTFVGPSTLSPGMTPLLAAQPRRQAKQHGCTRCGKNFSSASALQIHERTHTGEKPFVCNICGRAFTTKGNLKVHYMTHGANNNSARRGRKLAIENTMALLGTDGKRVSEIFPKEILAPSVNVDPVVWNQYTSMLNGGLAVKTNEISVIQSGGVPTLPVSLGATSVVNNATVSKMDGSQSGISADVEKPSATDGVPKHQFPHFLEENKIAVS
| Sequence | E-score |
| --- | --- |
| TCAATTGA | 0.184 |
| GTCCCATA | 0.0982 |
| AACCTACG | 0.0117 |
| ATGAGGCA | 0.0102 |
| GACATGGA | -0.0899 |
| AAGATATG | 0.293 |
| AGGTTTGA | -0.0497 |
| AGCCCGTA | -0.0574 |
| CTGATTTC | -0.0403 |
| CAGATAAG | 0.0543 |
| CTGCCGTA | -0.137 |
| ACGAAACG | -0.0406 |
| GCGGAGTA | -0.133 |
| CCCGAACG | -0.337 |
| ATCGAAAA | 0.275 |
| AGCTTTGG | -0.127 |
| AGTGGCCC | -0.229 |
| GGAGATAA | 0.14 |
| CCTTGCGC | -0.225 |
| GACCCAGC | -0.309 |
| CAGGGAAC | -0.0825 |

Block 2 — technique: RNA Bind-n-Seq; molecule type: RNA; medium: in vitro; concentration: 200 nM; notes: whole 134-nt RNA, ends assumed; with: 150 mM LiCl; relative to: input library; direction: higher = stronger binding; library: 7-deaza-guanosine replaces G
Target: Ras GTPase-activating protein-binding protein 1, full length (G3BP1, Homo sapiens, UniProt Q13283)
Chain of UniProt Q13283 (whole entry, looked up): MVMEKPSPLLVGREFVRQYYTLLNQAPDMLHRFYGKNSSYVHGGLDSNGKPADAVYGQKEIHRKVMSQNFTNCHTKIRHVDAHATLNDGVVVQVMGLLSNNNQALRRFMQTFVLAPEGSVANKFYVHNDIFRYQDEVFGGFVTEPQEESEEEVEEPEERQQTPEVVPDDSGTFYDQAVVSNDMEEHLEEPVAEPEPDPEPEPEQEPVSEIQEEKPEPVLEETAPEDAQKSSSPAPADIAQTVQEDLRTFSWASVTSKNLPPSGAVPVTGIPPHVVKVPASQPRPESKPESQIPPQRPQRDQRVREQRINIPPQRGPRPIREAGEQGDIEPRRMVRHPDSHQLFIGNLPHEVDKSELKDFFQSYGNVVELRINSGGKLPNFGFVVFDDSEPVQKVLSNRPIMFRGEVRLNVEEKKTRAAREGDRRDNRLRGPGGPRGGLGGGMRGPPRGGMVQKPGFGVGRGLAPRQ
Shared flanks, not repeated: GGGAGUUCUACAGUCCGACGAUC … UGGAAUUCUCGGGUGUCAAGG
| Sequence | log2 enrichment |
| --- | --- |
| GUCCUGUGCUACACAUCGUAUGUACCGAAUCGGGAAAAAAAGGGAGGGAAAAAAAGGGAAAGUAUUAUGUUACGCCGUUCGGAUCUGCAC | 0.289 |
| UCCUGUGCUACACAUCGUAUGUACCGAAUCGGGAAAGGGUUUUUUUGGGAAAAAAAGGGAAAGUAUUAUGUUACGCCGUUCGGAUCUGCA | -0.434 |
| CAAGUCCUGUGCUACACAUCGUAUGUACCGAAUCGGAAAGGAAAGGGGAAAGGGGAAAGUAUUAUGUUACGCCGUUCGGAUCUGCACUUC | 0.0793 |
| UAACUUUAGAGGAGGAUCUGAUGGAUAUGGCAGUGGACGAGGAUUUGGGGAUGGCUAUAAUGGGUAUGGAGGAGGACCUGGAGGUGGCAA | -0.904 |
| CCUGUGCUACACAUCGUAUGUACCGAAUCGGGGUGGGGUUUUUUUGGGGAAAAAAAGGGGAAAGUAUUAUGUUACGCCGUUCGGAUCUGC | -0.332 |
| CCUCAAGUCCUGUGCUACACAUCGUAUGUACCGAAUCGGCCGGGGCCGGCCGGAAAGUAUUAUGUUACGCCGUUCGGAUCUGCACUUCCA | 0.572 |
| UAGCCAAGAGUCGAAGCUAAACCAGAAGUUCAAUCUCAGCCACCUCGUGUGCGUGAACAACGACCUAGAGAACGACCUGGUUUUCCUCCU | 0.00937 |
| CCUGUGCUACACAUCGUAUGUACCGAAUCAAACCCCCCCAAACCCCCAAACCCCCCCAAAAAAGUAUUAUGUUACGCCGUUCGGAUCUGC | 0.24 |
| AGUCCUGUGCUACACAUCGUAUGUACCGAAUCGGGUUUUUUUGGGUUUGGGAAAGGGAAAGUAUUAUGUUACGCCGUUCGGAUCUGCACU | -0.962 |
| ACCAUGCAGGUGGGCAUCUUUGGGAAGUGGGGCAAGGGGGGGAUAGGGAGGUGGGUAACACUUUGGGAACAGGUGGUCCCAGGUCGUUUC | 0.386 |
| UGGCCCUGGUGGCAUGCGGGGAGGACGAGGUGGCCUCAUGGAUCGUGGUGGUCCCGGUGGAAUGUUCAGAGGUGGCCGUGGUGGAGACAG | -0.0179 |

Block 3 — technique: protein binding microarray; molecule type: double-stranded DNA, one strand shown; medium: in vitro; concentration: not given; relative to: not given; direction: higher = stronger binding
Target: Histone acetyltransferase KAT6A, both winged helices, GST fusion (KAT6A, Homo sapiens, UniProt Q92794, residues 1-181)
Notes: 8-mer, flanks averaged, mean of 2 arrays, mostly near background
Construct (chain): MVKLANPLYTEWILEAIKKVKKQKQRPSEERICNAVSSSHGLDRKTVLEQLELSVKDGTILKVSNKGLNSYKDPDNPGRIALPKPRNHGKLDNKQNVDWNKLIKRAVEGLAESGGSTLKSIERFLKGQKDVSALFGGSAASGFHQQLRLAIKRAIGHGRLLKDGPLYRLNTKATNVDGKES
| Sequence | E-score |
| --- | --- |
| CTCGTAAC | 0.0286 |
| AATAGTTA | -0.0127 |
| GAACCGGC | 0.269 |
| AGTTTCAA | -0.121 |
| ATCCAAAT | -0.107 |
| TAATATTA | -0.0824 |
| CTCCTCCA | -0.283 |
| GCAACAAC | -0.0462 |
| CCACGTTC | -0.0218 |
| AGACATAA | -0.0122 |
| ACCGTGAG | 0.124 |
| CAAAGCAA | -0.0621 |
| AGTCTCTG | -0.236 |
| AGGCAAGA | -0.136 |
| GCGCGCGC | 0.443 |
| AGCAATAC | -0.194 |
| CGGATCCC | 0.18 |

Block 4 — target: CCND1, cyclin fold, Cln2 fusion (human); technique: yeast growth competition, sequencing; medium: yeast; notes: weak parent motif; relative to: not given; direction: higher = stronger binding
Starting sequence: E2F1 docking peptide (human); PPVKRRLDLETDH; partner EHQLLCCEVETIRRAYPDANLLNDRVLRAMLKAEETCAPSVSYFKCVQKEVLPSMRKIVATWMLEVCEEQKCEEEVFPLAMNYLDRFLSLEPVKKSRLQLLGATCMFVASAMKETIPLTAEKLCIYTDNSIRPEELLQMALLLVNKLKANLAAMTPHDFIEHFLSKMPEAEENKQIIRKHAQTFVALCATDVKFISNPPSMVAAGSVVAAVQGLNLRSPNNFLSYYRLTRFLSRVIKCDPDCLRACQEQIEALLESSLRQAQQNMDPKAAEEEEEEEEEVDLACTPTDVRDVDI
| Variant | normalised enrichment score |
| --- | --- |
| PPVKRRLKLETDH [D8K] | 0.698 |
| PPVKRRLRLETDH [D8R] | 0.215 |
| PPVLRRLDLETDH [K4L] | 0.382 |
| PPVKRRLDLETVH [D12V] | 0.515 |
| PPVKRRLYLETDH [D8Y] | -0.696 |
| PPVKRRFDLETDH [L7F] | -0.293 |
| PPVKRRLDLKTDH [E10K] | -0.455 |
| RPVKRRLDLETDH [P1R] | 0.0792 |
| PPVKRRLDLETDR [H13R] | 0.251 |
| PPVKRRLDLEFDH [T11F] | 0.878 |
| PKVKRRLDLETDH [P2K] | 0.427 |
| PPVKRRLDLETPH [D12P] | 0.831 |
| PPVKRRLCLETDH [D8C] | 0.0249 |
| PPVKRRADLETDH [L7A] | 0.146 |
| PPVKRRLDLETDQ [H13Q] | 0.38 |
| PVVKRRLDLETDH [P2V] | -0.129 |
| PPVTRRLDLETDH [K4T] | -0.366 |
| PPVRRRLDLETDH [K4R] | 0.714 |
| PFVKRRLDLETDH [P2F] | 0.766 |
| PPVKRRLDLETDI [H13I] | 1.19 |
| PPVKCRLDLETDH [R5C] | 0.414 |
| PPVKRRLDLETDD [H13D] | 1.14 |
| PPVKRRLDLVTDH [E10V] | -0.0098 |
| PPVWRRLDLETDH [K4W] | 0.274 |
| PTVKRRLDLETDH [P2T] | 0.86 |

Block 5 — technique: RNA Bind-n-Seq; molecule type: RNA; medium: in vitro; concentration: not given; relative to: input RNA pool; direction: higher = stronger binding
Target: RING finger protein unkempt homolog, zinc fingers 1-6, GST-SBP tag (UNK, Homo sapiens, UniProt Q9C0B0, residues 30-357)
Chain of UniProt Q9C0B0 (30-357, looked up): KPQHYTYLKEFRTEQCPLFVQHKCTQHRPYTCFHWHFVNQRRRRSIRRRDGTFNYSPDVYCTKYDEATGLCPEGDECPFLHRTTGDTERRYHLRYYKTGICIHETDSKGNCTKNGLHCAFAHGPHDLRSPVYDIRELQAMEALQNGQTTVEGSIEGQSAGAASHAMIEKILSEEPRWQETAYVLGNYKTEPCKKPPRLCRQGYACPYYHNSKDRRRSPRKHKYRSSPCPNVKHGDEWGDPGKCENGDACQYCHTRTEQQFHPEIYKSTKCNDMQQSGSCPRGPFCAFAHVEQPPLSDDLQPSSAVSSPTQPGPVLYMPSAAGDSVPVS
Notes: RNA with constant flanks, human and mouse sites, ends assumed
Shared flanks, not repeated: GGGAGUUCUACAGUCCGACGAUC … CAACAGAGGAUUGAGCAUCA
| Sequence | bound/input enrichment |
| --- | --- |
| AGAAAUGGGUCGCUCCAAUUCUAGAUCACAUUCUUCAAGGUCAAAGUCUAGAUCACAGUCUAGUUCUCGAUCAAGAUCAAGAUCUCAUUCUAGAAAGAAGCGAUACAGUUCUAGGUCUCG | 0.143 ratio |
| UCCUUCAUCGCCUCAGAAUCUGCUGUGGAAUUGCUUCCCGUUUGGUGUGUGGUGGCACUUCUCCAAUGUGGACUCCAAAGGAUUUGUCCCUUUACAAUUUGAAAUGAAAUGAUGGCCACA | 0.22 ratio |
| AAACACUAAAUGAACAACGCCUGGAAGGAGAAUUUUGUGAUAUUGCUAUUGUGGUUGAGGAUGUGAAAUUCAGAGCACACAGAUGUGUUCUUGCUGCCUGCAGCACUUACUUUAAAAAGC | 0.212 ratio |
| CUGAAAUCUUUGGAGACUAUGCCUCCAGAGACGUCAAAGACCACGCUGGUAGAGCUUCCCAUAGCAAAAGUGGUUGAGCCAUCAGAAACCCUCACGAUAGUGUCAGAGACACCUACUGAG | 0.211 ratio |
| GAGAAGUCGACUCAUGAGAAAAUCCUAGAGAAGGCGAUGAAGAAGAAGGGGGGAAGUAAUUGUCUUGAAAUAAAAAAAGAAACAGAAAUUAAAAUUCAGACCCUGACAACGGAUCACAAA | 0.448 ratio |
| GGAAGGCGCUGUUUGAAGCUUGUCGGUCUUUGAAGUCUGGAAGACGUCUGCAGAGGACCCUUUUGGCAGCACAACUGUUACUCUAGGGAGUUGGUGGAGAUAUUUUUUUUUCUUAAGAGA | 0.393 ratio |
| UUUUCCUUCUUCAUGUGACCUAUGAAAAUAAAUGAAUAAUAACUCAAAAAAAGUACUUUGUAGUUUUUGUCUUUCCUUAAGUAAAACUAAUCUUUUCUUUUAAAAAAUUCUUUUAAGGCC | 0.481 ratio |
| GAGGUCCUGAGGCAGGAAGACAAAGCUGAAGCUAUGUCUGGCCACAUUGAUCAGUUUCUGAUAGCAACAUUCAUGCAGCUAAGACUCAUCUACAGCACACACAUGGCAGAUGAGAAGUUG | 0.231 ratio |
| UAAAUCCCUCCCUCAAGAAUGGCUUUGGUGUGAAACGUGGUGUGAUGACGCCUCUAAGAAAAGGGCAAAAACCAUUGAUUUGUGUAAUAAUCCGAUGACCAAAGAGCCGAAACUGGAAGC | 0.309 ratio |
| AGGACCGUGCAGAACCCAGCUGCAUUGAAGACCAAUGGAGAGCAUGUAUUUUAACUUGGAUUUAGGCAGGAAGUGAUACAUGAUGGUGAAGAAAACGGCCCUGAAGAAUGGACCAUAUUC | 0.526 ratio |
| CGAUUCUCGUUGGCUGAUGGAACUAUAGUGACUGCACAGACAAAAAGCAAACUCUUCCGAAAUCCUGUAACAAAUGAUCGACAUGGCUUUGUCUCAACCCACUUCCUUCAGAGAGAACAG | 0.357 ratio |
